Assay results pooled from the literature.
A part holds a random share of what one study measured. “And” joins repeats or separate records; there may be more than shown.
Chain of UniProt P61075 (whole entry, looked up): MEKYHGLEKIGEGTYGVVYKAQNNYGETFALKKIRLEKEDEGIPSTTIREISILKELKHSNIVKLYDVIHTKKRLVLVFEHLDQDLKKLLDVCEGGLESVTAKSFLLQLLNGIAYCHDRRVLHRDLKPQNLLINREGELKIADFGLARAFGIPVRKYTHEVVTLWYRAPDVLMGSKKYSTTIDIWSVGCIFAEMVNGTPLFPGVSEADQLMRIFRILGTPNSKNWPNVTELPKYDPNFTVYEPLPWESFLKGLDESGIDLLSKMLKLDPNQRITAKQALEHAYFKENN
Chain of UniProt P50406 (whole entry, looked up): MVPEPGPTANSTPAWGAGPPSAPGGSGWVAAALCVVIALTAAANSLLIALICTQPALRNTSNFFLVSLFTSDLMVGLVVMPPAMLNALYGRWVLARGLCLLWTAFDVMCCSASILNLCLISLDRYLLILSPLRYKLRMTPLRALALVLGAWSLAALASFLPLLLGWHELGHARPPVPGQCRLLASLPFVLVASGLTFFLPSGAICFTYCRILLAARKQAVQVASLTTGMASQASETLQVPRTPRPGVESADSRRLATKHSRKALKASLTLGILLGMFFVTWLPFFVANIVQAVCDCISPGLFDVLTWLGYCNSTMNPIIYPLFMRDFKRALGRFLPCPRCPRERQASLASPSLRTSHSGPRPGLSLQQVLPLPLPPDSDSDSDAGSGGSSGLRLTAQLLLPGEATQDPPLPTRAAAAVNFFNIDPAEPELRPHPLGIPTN

Study 1
SMILES: Cc1ncsc1-c1ccc([C@H](C)NC(=O)[C@@H]2C[C@@H](O)CN2C(=O)[C@@H](NC(=O)CNC(=O)c2ccc(F)c(-c3ccc(N4C[C@@H](C)N(C)[C@@H](C)C4)c(NC(=O)c4c[nH]c(=O)cc4C(F)(F)F)c3)c2)C(C)(C)C)cc1
Cell line: MV4-11
Technique: ATPlite
Time: 5 days
Reference: DMSO
| concentration | viability |
| --- | --- |
| 0.00271 µM | 67.5% and 62.9% |
| 0.43 µM | 8.16% and 6.25% and 7.58% and 4.23% |
| 0.0012 µM | 73.3% and 82.9% and 118% and 99.2% |
| 0.0794 µM | 17.5% and 20.1% and 27.2% and 22.5% |
| 1 µM | 4.72% and 5.8% and 6.89% and 5% |

Study 2
Cell line: HEK-293T/ACE2
Concentration: 10 µM
Time: 16 h
Reference: vehicle
| Compound | viability [%] |
| --- | --- |
| CCN(CC)C(=O)/C(C#N)=C/c1cc(O)c(O)c([N+](=O)[O-])c1 | 101 |
| CCN(CC)C(=O)N1CCN(C)CC1 | 101 |
| N=C(N)NC(=O)Cc1c(Cl)cccc1Cl | 96.9 |
| COc1ncnc(NS(=O)(=O)c2ccc(N)cc2)c1OC | 99.9 |
| COc1cnc(NS(=O)(=O)c2ccc(N)cc2)nc1 | 104 |
| Cc1nnc(SCC2=C(C(=O)O)N3C(=O)[C@@H](NC(=O)Cn4cnnn4)[C@H]3SC2)s1 | 96.4 |

Single results of other studies
| Compound | target or system | observed | technique | concentration | time | measurement | value |
| --- | --- | --- | --- | --- | --- | --- | --- |
| CNC(=O)c1cc(C(=O)NC2CC2)cn(Cc2ccccc2)c1=O | HTR6 (Homo sapiens, UniProt P50406) | binding | radioligand binding | 10 µM | – | inhibition | 10.9% |
| COC[C@@H](NC(C)=O)C(=O)NCc1ccccc1 | HaCaT | – | – | 100 µM | 60 h | viability | 150% |
| COc1cccc(CNC(=O)c2nc3scc(COCc4ccc(C(=O)O)cc4)c3c(=O)[nH]2)c1 | CRK2 (Plasmodium falciparum, UniProt P61075) | cell-free assay | competition with immobilised ligand | 1 µM | – | remaining binding | 72.5% |
| NCC(CC(=O)O)c1ccc(Cl)cc1 (stereo not drawn) | HaCaT | – | – | 100 µM | 60 h | viability | 118% |

Some of these lines once more (study 2):
| Compound | viability [%] |
| --- | --- |
| COc1cnc(NS(=O)(=O)c2ccc(N)cc2)nc1 | 104 |
| Cc1nnc(SCC2=C(C(=O)O)N3C(=O)[C@@H](NC(=O)Cn4cnnn4)[C@H]3SC2)s1 | 96.4 |
